Experimental data pooled from the literature.
Each numbered part is a random draw from the data of one study; scales do not carry over between parts. Substitutions count along the parent as printed.

Study 1 — technique: DHFR PCA, deep sequencing; sample: yeast; together with: (+)-ABA 4.8 µM; relative to: wild-type fitted maximum; reading: higher = stronger binding
Target: ABI1, truncated, D143A, DHFR fusion (Arabidopsis thaliana)
Setting: methotrexate growth selection, single substitutions
Parent: PYL1, truncated, DHFR fusion (Arabidopsis thaliana); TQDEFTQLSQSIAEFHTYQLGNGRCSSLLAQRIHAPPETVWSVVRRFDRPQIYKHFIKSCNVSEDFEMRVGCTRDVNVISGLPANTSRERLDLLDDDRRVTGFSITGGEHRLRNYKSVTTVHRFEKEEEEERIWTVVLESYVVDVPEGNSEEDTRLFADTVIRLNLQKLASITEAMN
`I57G`: “relative binding score” -1.5%.
`V44C` — result for “relative binding score”: 23.7%.
For `Y18N`, “relative binding score” read 31.9%.
`I12C` — result for “relative binding score”: 14.6%.
Under “relative binding score”, `F157V` is recorded as 16.6%.
`N22E` — result for “relative binding score”: 80.1%.
Under “relative binding score”, `A175I` is recorded as 57.1%.
`S80H` — result for “relative binding score”: 15.2%.
Under “relative binding score”, `S59I` is recorded as 8.97%.
For `G107D`, “relative binding score” read 38.3%.
`P50R`: “relative binding score” 5.5%.
`E127V` — result for “relative binding score”: 76.6%.
`Y53M` — result for “relative binding score”: 5.06%.
`M68F`: “relative binding score” 52.2%.
`R132F`: “relative binding score” 67.8%.
Under “relative binding score”, `A30Y` is recorded as 66.2%.
`A175R`: “relative binding score” 76.4%.
`K58M` — result for “relative binding score”: 29.2%.
Under “relative binding score”, `G71A` is recorded as 0.253%.
`G81A` — result for “relative binding score”: 3.43%.
For `A13S`, “relative binding score” read 67.8%.
Under “relative binding score”, `D75P` is recorded as 14.7%.
`E139W`: “relative binding score” 40.5%.
`I162E` — result for “relative binding score”: -16.2%.
`A13P`: “relative binding score” -4.8%.

Study 2 — target: Cln2 (Saccharomyces cerevisiae); read-out: peptide binding; technique: competitive growth sequencing; molecule type: peptide; organism: Saccharomyces cerevisiae; strain: unfused Cln2 strain; setting: peptide tiling library; reading: direction not given
`KSKHEEEEWTDDDLVE` has an enrichment score of 1.08.
The enrichment score of `PFSENVSAVQKLDFSD` is reported as 0.847.
For `ESSTVSEEDYFSSHRD`, the enrichment score was 0.672.
`RVSGLLSWTLSRVLWL` gave an enrichment score of -0.707.
For `RSLKLDGLLEEN`, the enrichment score was -0.43.
The enrichment score of `EPKTLFLGAGDFQF` is reported as 0.928.
`LAKRALKYTD` gave an enrichment score of -0.817.
The enrichment score of `SPREGHMMDALYAQVK` is reported as -0.406.
`VLLKRLQDVVSERANH` gave an enrichment score of -1.42.
`PLRKAKRARLCSSSSS` has an enrichment score of 1.29.
With `IQKKLRFEDTLEFVGF` the enrichment score was -1.09.
For `SFLIEYEFLIPPSLKP`, the enrichment score was 0.408.
`TRRRLFVENDSP` gave an enrichment score of -0.175.
`CFRCLLFSFSGRSGVE` has an enrichment score of -0.745.

Study 3 — technique: protein binding microarray; molecule type: double-stranded DNA, one strand shown; sample: in vitro; tested at: not given; relative to: not given; reading: higher = stronger binding
Target: Histone acetyltransferase KAT6A, winged helix 2, GST fusion (KAT6A, Homo sapiens, UniProt Q92794, residues 85-181)
Setting: 8-mer, flanks averaged, mean of 2 arrays, mostly near background
Target sequence (chain): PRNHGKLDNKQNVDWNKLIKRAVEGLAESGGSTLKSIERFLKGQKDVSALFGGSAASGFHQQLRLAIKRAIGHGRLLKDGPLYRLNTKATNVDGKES
For `CACTTCAG`, the E-score was 0.0472.
For `CATTATAG`, the E-score was -0.0621.
For `AGAGCCGG`, the E-score was 0.125.
The E-score of `CAAAAGCG` is reported as 0.111.
`CATAAGAA` has an E-score of 0.111.
`CCTATCCC` gave an E-score of -0.0871.
With `CCTAACTC` the E-score was -0.00661.
`ATTCGATA` has an E-score of -0.0699.
For `AAGTAGCA`, the E-score was 0.125.
For `CACATTCG`, the E-score was -0.00053.
The E-score of `ACGTCAGA` is reported as -0.132.
`CGCTTCCA` has an E-score of 0.0586.
With `CTGAGAAG` the E-score was 0.0813.
`CTGCCACC` gave an E-score of 0.0227.
For `GAAACTTA`, the E-score was -0.0465.
With `ATAGCCTG` the E-score was -0.0216.
For `GCTAACCA`, the E-score was -0.129.
With `CTATGTTA` the E-score was -0.131.
`CCTTGGGC` has an E-score of 0.0641.
`AGGTCTGA` gave an E-score of 0.0295.
`CTGAGTAC` has an E-score of -0.0662.
For `ACGCGTTA`, the E-score was -0.12.
The E-score of `CATGTGCG` is reported as 0.0272.
For `CAGTAAAC`, the E-score was -0.0426.
For `AGTTATAA`, the E-score was 0.00392.

Study 4 — technique: protein-binding microarray; molecule type: double-stranded DNA, one strand shown; sample: in vitro; tested at: 2200 nM top; setting: 60-bp whole probe; together with: salmon DNA 0.4 mg/ml; relative to: random background probes; reading: higher = stronger binding; shared flanks, not repeated: GCCTAGCAC … GTCTTGATTCGCTTGACGCTGCTG
Target: Interferon regulatory factor 7, full length, phosphomimetic (IRF7, Homo sapiens, UniProt Q92985, residues 1-503, S471D/S472D/S475D/S476D/S477D/S483D/S484D/S487D)
Residues (chain): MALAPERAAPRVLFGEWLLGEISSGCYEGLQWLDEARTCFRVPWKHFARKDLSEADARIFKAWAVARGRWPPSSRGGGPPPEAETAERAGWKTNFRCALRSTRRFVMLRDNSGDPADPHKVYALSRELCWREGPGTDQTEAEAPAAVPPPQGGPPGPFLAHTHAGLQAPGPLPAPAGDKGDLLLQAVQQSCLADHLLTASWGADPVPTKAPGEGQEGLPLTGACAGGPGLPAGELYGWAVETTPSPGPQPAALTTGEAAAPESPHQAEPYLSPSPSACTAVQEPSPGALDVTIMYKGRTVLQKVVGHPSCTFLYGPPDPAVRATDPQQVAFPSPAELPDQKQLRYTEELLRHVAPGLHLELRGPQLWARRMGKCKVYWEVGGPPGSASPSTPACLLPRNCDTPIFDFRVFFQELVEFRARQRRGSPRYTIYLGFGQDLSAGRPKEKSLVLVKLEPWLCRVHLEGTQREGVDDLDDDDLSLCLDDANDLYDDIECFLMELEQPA
For `TTAGATCGCAGTCTCGATTAGTGCTAG`, “fitted relative affinity” read 0.218 z-score.
`ATGCCCCCCAAGAGGGGCGGGTGCTAG`: “fitted relative affinity” -0.543 z-score.
For `TCAACTTTATGTAGGAAACTGTGCTAG`, “fitted relative affinity” read 0.0857 z-score.
For `TTAGGTTCCGGTTTCGTTTAGTGCTAG`, “fitted relative affinity” read 8.06 z-score.
For `TCATGTTTACATATGTTACTGTGCTAG`, “fitted relative affinity” read 1.66 z-score.
Under “fitted relative affinity”, `TCATGTTTCTGTGTCACACTGTGCTAG` is recorded as 2.48 z-score.
`TCAAATTTGGAAACCGAACTGTGCTAG`: “fitted relative affinity” -0.251 z-score.
`TGTGTCTGGAATTTTTAGAAGTGCTAG`: “fitted relative affinity” -0.0682 z-score.
Under “fitted relative affinity”, `GACGATTTCGGGTTTTGAGACGTGCTA` is recorded as 3.68 z-score.
Under “fitted relative affinity”, `TTAGGTATCGACTTCCGGTTAGTGCTA` is recorded as 1.69 z-score.
`GACGGACTGGGTATCGGGAAGTGCTAG` — result for “fitted relative affinity”: -0.623 z-score.
Under “fitted relative affinity”, `TTGTGTCTGGGATTTTGTCCGTGCTAG` is recorded as 0.291 z-score.
For `AAGCTTCTTTTTTATTCTAAAGTGCTA`, “fitted relative affinity” read 0.0925 z-score.
For `TCACATCTTCCTCTGCCACTGTGCTAG`, “fitted relative affinity” read 2.22 z-score.
`TTCGGACTGGGTTTCGGTTAGTGCTAG` — result for “fitted relative affinity”: 3.9 z-score.
`GAAGGTTTCGACACTGGGGACGTGCTA` — result for “fitted relative affinity”: 1.86 z-score.

Study 5 — technique: RNA Bind-n-Seq; molecule type: RNA; sample: in vitro; tested at: not given; relative to: input RNA pool; reading: higher = stronger binding
Target: RING finger protein unkempt homolog, zinc fingers 1-6, GST-SBP tag (UNK, Homo sapiens, UniProt Q9C0B0, residues 30-357)
Chain of UniProt Q9C0B0 (30-357, looked up): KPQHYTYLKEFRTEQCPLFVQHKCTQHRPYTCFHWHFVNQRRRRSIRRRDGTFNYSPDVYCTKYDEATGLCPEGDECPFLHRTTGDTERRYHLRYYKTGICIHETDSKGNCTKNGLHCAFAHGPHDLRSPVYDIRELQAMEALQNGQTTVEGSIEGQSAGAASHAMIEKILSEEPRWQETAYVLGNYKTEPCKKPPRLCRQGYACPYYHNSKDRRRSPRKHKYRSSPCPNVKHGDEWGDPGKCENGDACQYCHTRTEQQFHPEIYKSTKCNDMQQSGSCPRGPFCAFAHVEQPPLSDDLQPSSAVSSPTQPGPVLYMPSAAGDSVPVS
Setting: RNA with constant flanks, human and mouse sites, ends assumed
`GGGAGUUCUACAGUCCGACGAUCCCGGAAGAACAUUUGGAAGGGGUGAUGAAAAUUAUGUCCCCCAACAACAACAAGCUACACAGCUUCCACAUUCCUAAGAAAGGCCCAGCCGCCAAGAAGCCAGGGAAGCACAGUGACAAACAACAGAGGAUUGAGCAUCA` has a bound/input enrichment of 0.179 ratio.
The bound/input enrichment of `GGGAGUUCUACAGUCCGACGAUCAUUCUUGGCGGAUAGCCUACUUUAUGAAGGUAAGGAAUGAACUCCUACCCUUCUUGGGUCAUUCUCUGUACUGAUGCGUUAGUCUUAUAAUACUUUGCACCAACCUGAGGAAUCUUCUAGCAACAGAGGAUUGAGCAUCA` is reported as 0.294 ratio.
`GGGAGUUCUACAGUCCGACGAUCAAGAGUUUAUGCUGAGGGAAAAUCUGAAAAUGUGACAAUGUAGGAAAUUUUUUCUUCAACCUUUUUACUUGUUAAACUUAAUACUUUGUUUGACUUUUAGUCAGUCUUUCAGCUUUGCUCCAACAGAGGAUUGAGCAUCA` gave a bound/input enrichment of 0.327 ratio.
The bound/input enrichment of `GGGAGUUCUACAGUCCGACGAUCCUAUGCAAAGACUCCCUUUCCUCUCUGACCUCCUGUGCCCUAAGGUCUUGGUUUGUUUGAUUAUUUAUUUAUUUAUUUGCCAAAAAGUUUCUCUCCUUGACUCACAGAACGUAUCCUAAUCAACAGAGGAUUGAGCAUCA` is reported as 0.987 ratio.
The bound/input enrichment of `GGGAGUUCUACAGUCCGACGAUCCCAGUCAUGAAGAUGGAACCUCUGAAUAACCUCCAGGUGGCUGUGAAAAACAAUAUCGAUGUCUUCUACUUCAGCUGCCUCAUCCCACUCAAUGUGCUUUUUGUAGAAGAUGGCAAAAUGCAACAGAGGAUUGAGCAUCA` is reported as 0.176 ratio.
The bound/input enrichment of `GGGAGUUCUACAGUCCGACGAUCCGUGAUGAGGAAGUAAGCUCUGCUGAUAUAAGUAGUUCAUCUGAGGUAAUAUCACAGCAUCUAGUAUCUUACAGAAAUAUUGAAGAGCUUCAACAACAAAAUCAACGUCUCUUAGUGGCCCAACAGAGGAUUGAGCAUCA` is reported as 0.468 ratio.
The bound/input enrichment of `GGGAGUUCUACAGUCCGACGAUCGUAUUCUCCAAAGCAGUGUUCACACGGGAGCCAGCCUGUGGCCCCCAGCCUCCUGGAAAACAGGUUGGCGCUGGAGGAGCCGGGUCUUGGCAUCCUGGAGGUGGCCCCACUGGUCCUGGUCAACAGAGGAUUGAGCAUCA` is reported as 0.111 ratio.
With `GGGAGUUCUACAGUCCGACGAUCAAUAGAGGAUUAUAUUCAAUUGAAGUGCUGGAGCUCUUCUGAUAUUAUCAAUUCUCCUUCAUAGACAUUUUAUAAAGCUCUUUUAUGUGAACUCUUGCUUCAUCCAGGCAAGAACGGUGUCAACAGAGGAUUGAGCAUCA` the bound/input enrichment was 3.28 ratio.

Excerpt of the above (study 4):
`ATGCCCCCCAAGAGGGGCGGGTGCTAG`: “fitted relative affinity” -0.543 z-score.
For `TCAACTTTATGTAGGAAACTGTGCTAG`, “fitted relative affinity” read 0.0857 z-score.
For `TTAGGTTCCGGTTTCGTTTAGTGCTAG`, “fitted relative affinity” read 8.06 z-score.
For `TCATGTTTACATATGTTACTGTGCTAG`, “fitted relative affinity” read 1.66 z-score.
Under “fitted relative affinity”, `TCATGTTTCTGTGTCACACTGTGCTAG` is recorded as 2.48 z-score.
`TCAAATTTGGAAACCGAACTGTGCTAG`: “fitted relative affinity” -0.251 z-score.
`TGTGTCTGGAATTTTTAGAAGTGCTAG`: “fitted relative affinity” -0.0682 z-score.
Under “fitted relative affinity”, `GACGATTTCGGGTTTTGAGACGTGCTA` is recorded as 3.68 z-score.
Under “fitted relative affinity”, `TTAGGTATCGACTTCCGGTTAGTGCTA` is recorded as 1.69 z-score.
`GACGGACTGGGTATCGGGAAGTGCTAG` — result for “fitted relative affinity”: -0.623 z-score.
Under “fitted relative affinity”, `TTGTGTCTGGGATTTTGTCCGTGCTAG` is recorded as 0.291 z-score.
For `AAGCTTCTTTTTTATTCTAAAGTGCTA`, “fitted relative affinity” read 0.0925 z-score.
